Published values of several laboratories.
Numbered parts are unrelated; each lists some results of a single study.

Study 1
Target: Interferon regulatory factor 5, full length, phosphomimetic (IRF5, Homo sapiens, UniProt Q13568-2, residues 1-514, S451D/S453D/S456D/S462D)
Technique: protein-binding microarray
Form: double-stranded DNA, one strand shown
Matrix: in vitro
Tested at: 940 nM top
Setting: 60-bp whole probe
With: salmon DNA 0.4 mg/ml
Baseline: random background probes
Direction: higher = stronger binding
Measurement: fitted relative affinity
All sequences stand within: GCCTAGCAC … GTCTTGATTCGCTTGACGCTGCTG
Sequence = TTAGGCCTCGGTTTCGGTTAGTGCTAG; value = 7.24 z-score
Sequence = TTAGATATTAGTTTCGATTAGTGCTAG; value = 9.62 z-score
Sequence = TTAGAGTTCAGTATCGATTAGTGCTAG; value = 5.35 z-score
Sequence = GACGGTATCCTTTACCTGACGTGCTAG; value = 0.0343 z-score
Sequence = TGGCTTTCCTTTATGTCCTGGTGCTAG; value = 0.292 z-score
Sequence = TCACCTCTTTCTCTGCTACTGTGCTAG; value = 1.86 z-score
Sequence = CTGGGGGCAGTTTCATGGCCGTGCTAG; value = 2.19 z-score
Sequence = GACAGTATCGGTCTCGGGACGTGCTAG; value = 8.78 z-score
Sequence = CCATGTTGCAGACTCGAAGGGTGCTAG; value = -0.693 z-score
Sequence = GACGGACTGCTTCTCCTGATGTGCTAG; value = -0.508 z-score
Sequence = GACGGTTCCGGCTTCGGGACGTGCTAG; value = 0.684 z-score
Sequence = TCAAGTCCCCTCTTCTGACTGTGCTAG; value = -0.129 z-score
Sequence = TTCGGACTGGGTCTCGGTTAGTGCTAG; value = 1.35 z-score
Sequence = GACAATATCAGTATCGAGACGTGCTAG; value = 2.2 z-score
Sequence = TTAGGTCTCCATTTCCTTTAGTGCTAG; value = 0.754 z-score
Sequence = TTAGAACTGGGGTATCGATTAGTGCTA; value = 2.67 z-score
Sequence = TTCATTATTGTCTTCCCCATGTGCTAG; value = 1.25 z-score
Sequence = TCAGCTTTGCCTTCAGCACTGTGCTAG; value = 0.00879 z-score
Sequence = TTAGGTCTCCTACTGCTTAAGTGCTAG; value = -0.195 z-score
Sequence = TTAGGTATCGACAGTGGGTTAGTGCTA; value = 4.53 z-score
Sequence = GACGGTATCGGACTGGGGAAGTGCTAG; value = 2.88 z-score
Sequence = TGCATCGTAAGCAAAAATGAGTGCTAG; value = -0.515 z-score

Study 2
Target: RNA binding protein fox-1 homolog 2, RRM domain, GST-SBP tag (RBFOX2, Homo sapiens, UniProt O43251-10, residues 100-194)
Technique: RNA Bind-n-Seq
Form: RNA
Matrix: in vitro
Tested at: 365 nM
Setting: natural RNA segment, single round, ends assumed
Baseline: no-protein control
Direction: higher = stronger binding
Measurement: RBNS enrichment (R)
Construct (chain): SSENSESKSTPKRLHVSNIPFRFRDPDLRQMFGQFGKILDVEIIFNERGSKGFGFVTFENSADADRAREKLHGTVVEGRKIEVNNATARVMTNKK
Sequence = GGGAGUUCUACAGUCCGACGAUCUCCCCAGAGUGGCUUUCCUGGCACCCUGGCCUGGGUGUCUGGUUCUGUUUUCUUUUCUUCCCCUUGUGUUUCCAGUCACCUAACUUCCCUUCCUCAGGCUCCCCCGGCCCUGGAAUUCUCGGGUGCCAA; value = 0.802
Sequence = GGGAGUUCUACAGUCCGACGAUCACCUAAAGAUAAAACCAAUUCACAAACUGAAGGUAGCUUUUUAUUACUCCGUGGGGAGCAUGUACAGAGCUCUGUGUAUACACAGCUUCACACCCACCAGAUUGUUACUAUGGAAUUCUCGGGUGCCAA; value = 5.52
Sequence = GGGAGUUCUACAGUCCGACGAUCAAACCUGUGGGUGGGGUUGGGGUGGAGAAGUAGAGAGAGGGCAACAGCUUCCACAACUGCUUCAUCUCUGCCAACACUAAUUUUUCCCACACUGUCUUUGUACAUUUCAGUGGAAUUCUCGGGUGCCAA; value = 0.229
Sequence = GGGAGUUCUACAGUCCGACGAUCGCUGCGUAGCUGUGUUGUUUCCUGUUAUGAGCAUUGGAAAUUGGGUUCUCCUUCUGUGAGCAUGGAGUUGAAUGGAAUGCCCACCAGGCCGAGUCUUCUUAGAUGACUGAUGGAAUUCUCGGGUGCCAA; value = 10.4
Sequence = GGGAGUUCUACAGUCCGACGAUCCUUUGUCAUAUACUCUGCAUCACUGUCAUACUCACAACUUCGUGAAUAAAGUUGUGUGCUUUAUUCGAGAUGCCUCCAUACCUGUGUUUCAUUUCUCGUUCCCUGGCUCCUGGAAUUCUCGGGUGCCAA; value = 0.525
Sequence = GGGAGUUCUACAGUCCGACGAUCAUUGUUAACUUUUUAUUGUCAUCAAAAGUUCAUAAAAGUCCUAUUAAUCCCCAUAUUCUUCUACUGCCCUUAACUCUGGUAUACACCAAAAAGAAAUCUUUACUUUCCUUUGGAAUUCUCGGGUGCCAA; value = 1.06
Sequence = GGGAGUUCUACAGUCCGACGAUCUGCCUACAGCCUGCAGUCUGGAGACAAGCUCUUCCGGAGUGCUCUGGGAGCCAGGCCAGGGUGUGAGGGAGGUGCAGAGGCAUCCGGGGCGGGAGCAAGCCCCAGGUUGUUGGAAUUCUCGGGUGCCAA; value = 0.378
Sequence = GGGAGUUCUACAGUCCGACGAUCCUGCCGCCCCACCCUGUGCUCUCCGGAUCCCACUAGCCACAGGCAUCUCCAGGAGGGCCCGGGGCUCCUGCGUCCCUCGGGGUCUGUCAUGUGACCUGUUUGGCCCCUAAUGGAAUUCUCGGGUGCCAA; value = 0.489
Sequence = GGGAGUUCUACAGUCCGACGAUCAUUUUUGUAGCGACUGUAAACAGAAAUGCCAAAUUGAUGGUUAAUUGUUGCUGCUUCAAAAAUAAGUAUAAAAUUAAUAUGUAAGGAAGCCCAUUCUUUCAUGUUAAAUAUGGAAUUCUCGGGUGCCAA; value = 0.283
Sequence = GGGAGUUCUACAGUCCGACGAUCCUACUUUUGAAGAAAAGAAGCCCUAUCUGGAGACUUGACUCCAGAGCGAAGCCCUAUCUGGAGACUUGACUCCAGAGCGAAGGUUCAACUGCGCCUGCAGUCACUAUCCCUGGAAUUCUCGGGUGCCAA; value = 0.245
Sequence = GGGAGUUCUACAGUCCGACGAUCGGGAGGGGUGGCAGACAGGAAGAAAACAUGUCCAGGCCCCUGGUCUCCAUAGAGAAUGGUGCUUUGUCCAAGAAAACGUAUGAGUUUCUGAUUCUCCGGGAGCCGUUCAAUGGAAUUCUCGGGUGCCAA; value = 0.397
Sequence = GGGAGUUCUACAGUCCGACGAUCCUGGUUAAACUGCAGUGAUACAUUUAGGUGGGUGGGGUCAAGGCAUAUGUGGCCUCCGGGAGACACCUGCUUGGAAGGAGGCAGUGAUGGAGAUAGAGCCCCACUCUGAGUGGAAUUCUCGGGUGCCAA; value = 1.26

Study 3
Target: RING finger protein unkempt homolog, zinc fingers 1-6, SBP tag (UNK, Homo sapiens, UniProt Q9C0B0, residues 30-357)
Sequence of UniProt Q9C0B0 (30-357, looked up): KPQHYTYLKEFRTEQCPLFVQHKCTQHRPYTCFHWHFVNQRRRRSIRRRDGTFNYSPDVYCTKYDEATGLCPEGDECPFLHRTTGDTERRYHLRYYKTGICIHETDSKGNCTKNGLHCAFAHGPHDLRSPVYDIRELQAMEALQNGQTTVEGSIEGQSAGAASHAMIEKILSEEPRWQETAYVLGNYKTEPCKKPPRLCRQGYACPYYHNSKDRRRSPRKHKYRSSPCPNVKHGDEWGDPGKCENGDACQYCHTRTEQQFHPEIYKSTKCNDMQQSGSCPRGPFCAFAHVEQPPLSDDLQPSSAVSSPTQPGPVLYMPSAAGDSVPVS
Technique: RNA Bind-n-Seq
Form: RNA
Matrix: in vitro
Tested at: 100 nM
Setting: RNA with constant flanks, vertebrate orthologous sites, ends assumed
Baseline: input RNA pool
Direction: higher = stronger binding
Measurement: bound/input enrichment
Sequence = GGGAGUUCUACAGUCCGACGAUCCCCAUGGCUGCUUUGUGUCACCUCAGUGACUUACAGUCCCCCUUGGCAUUUAGUUGGUACUAGAGCCAGUCAUCCUUAACAAAUCUUUUCACAUUUUAUUUCUUUCACAUGUAGUCAUCUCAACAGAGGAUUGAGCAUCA; value = 2 ratio
Sequence = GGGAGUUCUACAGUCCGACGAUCGCACUGCCCAUGCAGAUUGCACAACACUGAAUGCAAAGUCAUAAUUUUCAUAGUCACAGUAAGGUAGCUUUAGGGCAAUAUCACCAUGGUUUUUCUCAUGUGCAGUUUUUUAAAAUGUACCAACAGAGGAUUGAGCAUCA; value = 0.624 ratio
Sequence = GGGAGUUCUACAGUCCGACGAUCUUAAAGUCAUUUUUUCACAUUUCCUGUAAAUAAUGGGUAAUCAUUUUUUAUUUUAUUUUUAAGUGCUGUUUUAACAAUGUGGAUAGACCAUAAAUGUACUUGCUGAAUUCAUUCAUUUUUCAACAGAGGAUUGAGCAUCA; value = 0.358 ratio
Sequence = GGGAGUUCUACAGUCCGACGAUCGUGUUUUGUACAGGGUAUUCUCUGUACUAGUUUGUUGUGGUUAUAAAACAAUUAGCAAAACAGCUUACAUUUGUAUUUAUUUUCUAUUCCAUACUUCUGUGCCCCAUGUUUUUUUCUCUCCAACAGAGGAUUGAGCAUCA; value = 0.959 ratio
Sequence = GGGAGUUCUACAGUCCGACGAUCAAGGAGAAGAGCUCACAAACUCAAAGGAAAACUAGUCAAGAGUUUCUAAUAGUUAAAAGCUAGGAAAGAUUAGGACAACUUUACAAAUGAGCAAUUAAAAAGAAAAAGGAUAUGGAAACUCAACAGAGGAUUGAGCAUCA; value = 0.481 ratio
Sequence = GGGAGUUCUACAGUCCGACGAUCGUCAUCUGACUGGAUGAAGACUGUUCCGAGUUAUAACCAAACAAAUAGCUCCAUGGACUUUAGAAAUUAUAUGAUGAGAGAUGAGACUCUGGAACCACUGCCCAAAAACUGGGAAAUGGCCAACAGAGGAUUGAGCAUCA; value = 0.828 ratio
Sequence = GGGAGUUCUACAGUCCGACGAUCUCCUAGCGUCAUACCAGCAUACUAUCUAGUCAUACGUGCACAGCUUACCAAGUAACAGUCUCGUUGUAUUUUUAAUUUAAAAACUGCUUUUCCCAAGACUGAAAAAGAAGCUACGGUUUUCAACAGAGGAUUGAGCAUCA; value = 1.03 ratio
Sequence = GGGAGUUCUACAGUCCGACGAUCUCAUUUUUGAUUUUAAUUUUAUUUUAUACAACGUGUAGACAGUUCCCUGUUCUCUGCAUUUAGAAGUAUACACAGUACAACUCUGUUAAUUCUGUAAGUAAUUUUUAUAAUUAUGAUGUACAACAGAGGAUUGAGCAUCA; value = 0.423 ratio
Sequence = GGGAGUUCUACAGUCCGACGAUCGUUAGGUCAUGACCCUUACAGGCUAGGUCAUGACGCCUACAGGUUAGGGCAGGACCCCUAUAGAUUAGGCCAUGAUCCCUACAGACUAACUCCUGAUCCCUAUAGGAUGUCACCUAGACCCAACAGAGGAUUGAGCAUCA; value = 0.758 ratio
Sequence = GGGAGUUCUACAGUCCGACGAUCUUCAGGCGCAAUUGACUGGUUCACAGCAUUCCUUACAUAGUUAUCUGUCAAAUGCAAGUUUAGGUAAUUUUCAGGAAACAUCCAAGCAGUCAUCUUUAUCCUGUAGUACAAUUGGAGAUUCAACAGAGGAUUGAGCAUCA; value = 0.898 ratio
Sequence = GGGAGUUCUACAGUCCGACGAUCGUUUUUUAAUGCCCUCAACAGGCUGGUUUUUUUCAUGCUGCCUUCAAGUGCUUAUGGUAAGCUUGUUACUUUGGGCUCAGUUACUUUAGUAGAUUGGAUCAAGCAGUAGAGCUGUCCGUUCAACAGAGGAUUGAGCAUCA; value = 0.54 ratio

Study 4
Target: Max-binding protein MNT, bHLH-zipper, MAX partner unstated (MNT, Homo sapiens, UniProt Q99583, residues 220-300)
Technique: protein-binding microarray
Form: double-stranded DNA, one strand shown
Matrix: in vitro
Tested at: not given
Setting: k-mer, scored over probes, only values ≥0.25
Direction: higher = stronger binding
Measurement: E-score
Construct (chain): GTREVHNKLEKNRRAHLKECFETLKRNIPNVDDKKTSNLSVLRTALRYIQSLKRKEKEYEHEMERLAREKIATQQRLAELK
Sequence = AACATGAG; value = 0.291
Sequence = ACGAGGTC; value = 0.304
Sequence = CCCCATGA; value = 0.251
Sequence = CGTGGGTC; value = 0.335
Sequence = ACGTGTAT; value = 0.456
Sequence = GCACGGGA; value = 0.341
Sequence = ATGCAGGC; value = 0.269
Sequence = ACCCACCA; value = 0.252
Sequence = CCATGCAG; value = 0.363
Sequence = CGCATGAC; value = 0.384
Sequence = CATGGGTC; value = 0.261
Sequence = ATGTGCCA; value = 0.268
Sequence = CGTGGCAA; value = 0.318
Sequence = CCACACGA; value = 0.264
Sequence = GCACGCAA; value = 0.266
Sequence = ACTCATGC; value = 0.278

A few entries again (study 4):
Sequence = CCATGCAG; value = 0.363
Sequence = CGCATGAC; value = 0.384
Sequence = CATGGGTC; value = 0.261
Sequence = ATGTGCCA; value = 0.268
Sequence = CGTGGCAA; value = 0.318
Sequence = CCACACGA; value = 0.264
Sequence = GCACGCAA; value = 0.266
